Results collected from several papers.
Lines come from different studies, so protocols differ.
FGFR3 isoform IIIc: FGFR3 isoform IIIc (unknown, UniProt Q61851)
Sequence of UniProt Q61851 (whole entry, looked up): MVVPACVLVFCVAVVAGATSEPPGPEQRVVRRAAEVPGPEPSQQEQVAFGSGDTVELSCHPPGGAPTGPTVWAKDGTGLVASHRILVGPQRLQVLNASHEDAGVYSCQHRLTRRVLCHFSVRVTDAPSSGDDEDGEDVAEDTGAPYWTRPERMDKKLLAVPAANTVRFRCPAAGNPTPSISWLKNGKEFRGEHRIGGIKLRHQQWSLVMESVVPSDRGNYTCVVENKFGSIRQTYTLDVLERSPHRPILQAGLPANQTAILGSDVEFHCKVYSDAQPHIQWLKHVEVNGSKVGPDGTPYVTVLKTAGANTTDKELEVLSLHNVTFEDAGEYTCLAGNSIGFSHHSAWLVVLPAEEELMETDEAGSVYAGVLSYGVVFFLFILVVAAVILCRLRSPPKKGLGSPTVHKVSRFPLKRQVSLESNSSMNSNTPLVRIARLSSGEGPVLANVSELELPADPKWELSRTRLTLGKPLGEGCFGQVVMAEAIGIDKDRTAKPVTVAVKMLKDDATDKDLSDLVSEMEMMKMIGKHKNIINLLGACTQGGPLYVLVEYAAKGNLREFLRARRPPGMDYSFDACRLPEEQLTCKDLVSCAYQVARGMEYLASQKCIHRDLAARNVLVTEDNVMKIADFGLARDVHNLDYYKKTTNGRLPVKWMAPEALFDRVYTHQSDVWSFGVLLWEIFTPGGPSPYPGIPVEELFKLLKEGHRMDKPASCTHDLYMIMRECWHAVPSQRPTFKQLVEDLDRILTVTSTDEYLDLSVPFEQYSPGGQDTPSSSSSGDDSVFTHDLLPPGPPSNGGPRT
B1: GABBR2 42-466 (Homo sapiens, UniProt O75899); sequence looked up; chain WARGAPRPPPSSPPLSIMGLMPLTKEVAKGSIGRGVLPAVELAIEQIRNESLLRPYFLDLRLYDTECDNAKGLKAFYDAIKYGPNHLMVFGGVCPSVTSIIAESLQGWNLVQLSFAATTPVLADKKKYPYFFRTVPSDNAVNPAILKLLKHYQWKRVGTLTQDVQRFSEVRNDLTGVLYGEDIEISDTESFSNDPCTSVKKLKGNDVRIILGQFDQNMAAKVFCCAYEENMYGSKYQWIIPGWYEPSWWEQVHTEANSSRCLRKNLLAAMEGYIGVDFEPLSSKQIKTISGKTPQQYEREYNNKRSGVGPSKFHGYAYDGIWVIAKTLQRAMETLHASSRHQRIQDFNYTDHTLGRIILNAMNETNFFGVTGQVVFRNGERMGTIKFTQFQDSREVKVGEYNAVADTLEIINDTIRFQGSEPPKD
B2: TIMP3 24-144 (Homo sapiens, UniProt P35625); sequence looked up; chain CTCSPSHPQDAFCNSDIVIRAKVVGKKLVKEGPFGTLVYTIKQMKMYRGFTKMPHVQYIHTEASESLCGLKLEVNKYQYLLTGRVYDGKMYTGLCNFVERWDQLTLSQRKGLNYRYHLGCN
B3: UGT1A9 (Homo sapiens, UniProt O60656); chain GKLLVVPMDGSHWFTMRSVVEKLILRGHEVVVVMPEVSWQLGRSLNCTVKTYSTSYTLEDLDREFKAFAHAQWKAQVRSIYSLLMGSYNDIFDLFFSNCRSLFKDKKLVEYLKESSFDAVFLDPFDNCGLIVAKYFSLPSVVFARGILCHYLEEGAQCPAPLSYVPRILLGFSDAMTFKERVRNHIMHLEEHLLCHRFFKNALEIASEILQTPVTEYDLYSHTSIWLLRTDFVLDYPKPVMPNMIFIGGINCHQGKPLPMEFEAYINASGEHGIVVFSLGSMVSEIPEKKAMAIADALGKIPQTVLWRYTGTRPSNLANNTILVKWLPQNDLLGHPMTRAFITHAGSHGVYESICNGVPMVMMPLFGDQMDNAKRMETKGAGVTLNVLEMTSEDLENALKAVINDKSYKENIMRLSSLHKDRPVEPLDLAVFWVEFVMRHKGAPHLRPAAHDLTWYQYHSLDVIGFLLAVVLTVAFITFKCCAYGYRKCLGKKGRVKKAHKSKTH
Sequence of UniProt P0A6A8 (whole entry, looked up): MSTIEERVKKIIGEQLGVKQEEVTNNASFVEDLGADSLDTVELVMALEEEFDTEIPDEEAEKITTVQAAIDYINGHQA
Sequence of UniProt O75173 (whole entry, unmodified, looked up): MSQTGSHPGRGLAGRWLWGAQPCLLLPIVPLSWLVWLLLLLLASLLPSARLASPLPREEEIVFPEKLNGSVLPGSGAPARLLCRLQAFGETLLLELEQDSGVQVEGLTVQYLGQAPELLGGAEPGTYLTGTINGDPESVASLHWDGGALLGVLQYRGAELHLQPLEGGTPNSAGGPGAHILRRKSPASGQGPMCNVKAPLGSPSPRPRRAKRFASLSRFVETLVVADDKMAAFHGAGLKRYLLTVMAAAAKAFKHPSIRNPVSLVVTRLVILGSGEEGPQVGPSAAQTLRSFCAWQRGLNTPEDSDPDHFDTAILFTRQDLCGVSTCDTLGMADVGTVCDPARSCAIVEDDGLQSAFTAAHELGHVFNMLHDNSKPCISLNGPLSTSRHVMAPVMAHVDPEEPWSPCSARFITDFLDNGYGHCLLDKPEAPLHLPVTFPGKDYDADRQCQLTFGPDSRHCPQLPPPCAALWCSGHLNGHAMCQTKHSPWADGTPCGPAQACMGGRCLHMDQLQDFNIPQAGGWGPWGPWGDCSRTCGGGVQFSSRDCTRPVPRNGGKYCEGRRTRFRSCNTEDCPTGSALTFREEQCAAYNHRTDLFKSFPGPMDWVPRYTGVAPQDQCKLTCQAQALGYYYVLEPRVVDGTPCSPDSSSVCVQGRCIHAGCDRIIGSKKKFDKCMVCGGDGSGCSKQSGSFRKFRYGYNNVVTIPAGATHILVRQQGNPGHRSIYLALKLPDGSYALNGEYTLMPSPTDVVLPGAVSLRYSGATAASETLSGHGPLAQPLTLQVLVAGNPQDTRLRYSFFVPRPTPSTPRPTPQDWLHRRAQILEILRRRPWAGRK
Sequence of UniProt Q8PTU1 (whole entry, looked up): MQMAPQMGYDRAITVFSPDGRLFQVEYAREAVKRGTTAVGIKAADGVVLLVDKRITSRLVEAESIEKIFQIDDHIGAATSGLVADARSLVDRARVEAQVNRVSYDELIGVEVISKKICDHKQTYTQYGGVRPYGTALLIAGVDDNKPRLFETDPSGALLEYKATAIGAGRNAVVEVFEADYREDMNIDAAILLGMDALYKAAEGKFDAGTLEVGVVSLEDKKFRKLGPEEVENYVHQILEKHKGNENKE
Sequence of UniProt P55075 (whole entry, looked up): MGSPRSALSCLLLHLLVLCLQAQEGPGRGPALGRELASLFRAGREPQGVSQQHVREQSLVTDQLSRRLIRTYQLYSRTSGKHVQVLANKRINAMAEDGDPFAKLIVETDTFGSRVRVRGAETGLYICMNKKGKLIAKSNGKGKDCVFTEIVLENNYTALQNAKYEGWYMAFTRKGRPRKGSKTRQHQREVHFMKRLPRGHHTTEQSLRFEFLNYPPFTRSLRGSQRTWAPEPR
Sequence of UniProt P31266 (whole entry, unmodified, looked up): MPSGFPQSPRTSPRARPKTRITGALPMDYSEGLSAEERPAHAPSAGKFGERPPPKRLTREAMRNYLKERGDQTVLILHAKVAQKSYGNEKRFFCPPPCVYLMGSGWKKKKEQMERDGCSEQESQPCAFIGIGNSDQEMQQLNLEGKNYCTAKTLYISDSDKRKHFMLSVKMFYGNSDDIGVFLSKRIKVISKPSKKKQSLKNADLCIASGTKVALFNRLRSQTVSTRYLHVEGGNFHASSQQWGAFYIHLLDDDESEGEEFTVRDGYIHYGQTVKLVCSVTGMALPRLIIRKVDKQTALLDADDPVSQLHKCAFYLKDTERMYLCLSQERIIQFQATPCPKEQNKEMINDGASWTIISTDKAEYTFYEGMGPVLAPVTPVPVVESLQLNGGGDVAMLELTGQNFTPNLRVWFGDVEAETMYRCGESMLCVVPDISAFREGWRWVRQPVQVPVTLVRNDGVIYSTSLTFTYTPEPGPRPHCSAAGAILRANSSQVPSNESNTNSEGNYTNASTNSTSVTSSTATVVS
Sequence of UniProt P30872 (whole entry, looked up): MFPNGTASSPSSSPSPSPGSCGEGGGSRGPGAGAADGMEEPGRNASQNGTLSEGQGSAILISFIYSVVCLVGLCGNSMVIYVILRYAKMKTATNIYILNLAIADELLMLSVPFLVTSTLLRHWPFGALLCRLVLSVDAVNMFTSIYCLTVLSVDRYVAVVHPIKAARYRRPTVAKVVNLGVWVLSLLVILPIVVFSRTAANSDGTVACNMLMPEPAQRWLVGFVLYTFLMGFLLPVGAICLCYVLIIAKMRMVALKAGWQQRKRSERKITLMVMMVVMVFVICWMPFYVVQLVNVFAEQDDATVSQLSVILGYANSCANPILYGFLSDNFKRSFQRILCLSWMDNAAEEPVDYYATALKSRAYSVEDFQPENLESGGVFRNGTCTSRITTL
Sequence of UniProt Q12798 (whole entry, unmodified, looked up): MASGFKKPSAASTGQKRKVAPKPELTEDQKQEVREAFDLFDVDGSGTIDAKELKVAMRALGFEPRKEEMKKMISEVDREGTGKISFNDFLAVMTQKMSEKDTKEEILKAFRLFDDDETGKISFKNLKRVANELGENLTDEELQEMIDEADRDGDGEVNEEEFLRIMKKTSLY

| Molecule | tested on | test | system | setting | scale | measurement | result |
| --- | --- | --- | --- | --- | --- | --- | --- |
| F8 A2 subunit D519V/E665V (Homo sapiens) | F8 A1/A3C1C2 dimer (Homo sapiens) | thrombin generation | FVIII-deficient plasma | 0.13 nM |  | peak thrombin | 180 nM |
| pasireotide, D-Trp, Tyr(4-Bzl) | SSTR1 (Homo sapiens, UniProt P30872) | cAMP inhibition, FRET Epac sensor | HEK 293T |  |  | pIC50 | 8 |
| DnaA (Caulobacter crescentus) | Lon protease (Caulobacter crescentus) | steady-state kinetics |  | 30 °C |  | KM | 2.9 µM |
| CDC48-B C-terminal 7 residues (Methanosarcina mazei) | 20S proteasome core particle (Methanosarcina mazei, UniProt Q8PTU1) | LFP hydrolysis, activator |  | 0.6 nM CP, 37 °C | relative to: MmCP alone, higher = more hydrolysis | peptide hydrolysis | 1.5 fold |
| B1 (GABBR2 42-466) | GABBR1 30-459 (Homo sapiens, UniProt Q9UBS5-2) | SEC |  |  |  | molecule per partner | 1 |
| FGF8b (Homo sapiens) | FGFR3 isoform IIIc | cell proliferation, MTT | BaF3-FGFR3c | 20 nM, 48 h, together with: chondroitin sulfate C 4.9 µg/mL | relative to: FGF 1 with heparin, higher = more proliferation | cell proliferation | 32% |
| F8 A2 subunit D666S (human) | F8 A1 and A3C1C2 dimer, factor VIIIa S1787D | FXa generation activity loss |  | 1.5 nM, 23 °C | higher = faster decay | decay rate | 0.1 min⁻¹ |
| B2 (TIMP3 24-144) | ADAMTS4 213-519 (Homo sapiens, UniProt O75173) | inhibitor, steady-state kinetics |  | 1 h, pH 7.5, 37 °C |  | Ki | 0.64 nM |
| fabF R68A (Escherichia coli) | acpP C12-acylated 1-78, C12 acyl on 4'-phosphopantetheine (Escherichia coli, UniProt P0A6A8) | holo-AcpP formation, HPLC |  | 10 µM, together with: malonyl-CoA |  | condensation rate | 1.2 min⁻¹ |
| Ac-NWKLLAKGLLIRERLKR-NH2 (XPC 847-863 (Homo sapiens); N-acetyl; C-terminal amide) | CETN1, phosphothreonine (Homo sapiens, UniProt Q12798) | ITC | peptide |  |  | ΔH | -127 kJ/mol |
| FGF8 (Homo sapiens, UniProt P55075) | FGFR3 isoform IIIc | cell proliferation, MTT | BaF3-FGFR3c | 20 nM, 48 h, together with: 2-O desulfated heparin 4.9 µg/mL | relative to: FGF 1 with heparin, higher = more proliferation | cell proliferation | 127% |
| B3 (UGT1A9) | COc1cc(/C=C/c2ccc(O)cc2)cc(OC)c1 | steady-state kinetics |  | pH 7.4, 37 °C |  | Vmax | 4.04e-05 µmol/min/mg |
| MENVKKRTATTTWMVPTAQ (L3MBTL3 52-70 A58R (Homo sapiens, UniProt Q96JM7-2); sequence looked up) | Rbpj 53-474 (Mus musculus, UniProt P31266) | ITC | peptide | pH 6.5, 25 °C, NaCl 150 mM |  | ΔH | -58.6 kJ/mol |

Some of these lines once more:
| Molecule | tested on | test | system | setting | scale | measurement | result |
| --- | --- | --- | --- | --- | --- | --- | --- |
| fabF R68A (Escherichia coli) | acpP C12-acylated 1-78, C12 acyl on 4'-phosphopantetheine (Escherichia coli, UniProt P0A6A8) | holo-AcpP formation, HPLC |  | 10 µM, together with: malonyl-CoA |  | condensation rate | 1.2 min⁻¹ |
